Results collected from several papers.
pIC50: −log10 of the molar value.
Cell line: SN12C

SMILES	test	test system	setting	scale	endpoint	value
Cc1cc(-c2ccccc2)n(-c2nc(-c3ccc(Cl)cc3)c3c(NC(=O)c4ccccc4)nnc-3[nH]2)n1	SRB		10 µM, NCI60 single-dose screen	reference: untreated	cell growth	87.1%
CCN(CC)c1ccc(C=NNC(=O)CSc2nc3ccccc3c(=O)n2Cc2ccc(S(N)(=O)=O)cc2)c(O)c1	NCI five-dose screen				TGI	> 100 µM
C#C[C@@]1(O)[C@@H](CO)O[C@@H](n2cc(Br)c3c(N)ncnc32)[C@@H]1O	SRB		NCI-60 screen		TGI	> 100 µM
CCCN1CCN(c2ccc3[nH]c(-c4ccc5[nH]c(-c6ccc(OCC)c(OCC)c6)nc5c4)nc3c2)CC1	SRB		10 µM, 48 h		growth percent	-37.5%
Cc1cc(C)n(C(=S)[S][Au][PH](CCCCCC[PH]([Au][S]C(=S)n2nc(C)cc2C)(c2ccccc2)c2ccccc2)(c2ccccc2)c2ccccc2)n1	cell growth, NCI-60 screen		renal cancer		log10 TGI	> -4
CC(=O)O[C@H]1C(=O)[C@@]2(C)[C@H]([C@H](OC(=O)c3ccccc3)[C@]3(O)C[C@H](OC(=O)[C@H](O)[C@@H](NC(=O)c4ccccc4)c4ccccc4)C(C)=C1C3(C)C)[C@]1(OC(C)=O)CO[C@@H]1C[C@@H]2O	sulforhodamine B	Renal cancer	NCI60 screen		TGI	1 µM
C#C[C@@]1(O)[C@@H](CO)O[C@@H](n2ccc3c(N)ncnc32)[C@@H]1O	SRB		NCI-60 screen		TGI	3.91 µM
CCCCN1CCN(c2ccc3[nH]c(-c4ccc5[nH]c(-c6ccc(OCC)cc6)nc5c4)nc3c2)CC1	SRB		10 µM, 48 h		growth percent	76.8%
O=C1NC(=NCc2cccs2)S/C1=C\c1ccc2ncccc2c1	MTS		NCI60 panel		pIC50	< 5.00
O=C(Nc1nnc2n3c(Cc4ccccc4)n[nH]c3nc(-c3ccc(Cl)cc3)c1-2)c1ccccc1	SRB		10 µM, NCI60 single-dose screen	reference: untreated	cell growth	104%
Cn1cncc1C1=CN(c2ncnc3[nH]cnc23)CCS1			renal cancer		GI50	15.5 µM
CCCCN1CCN(c2ccc3[nH]c(-c4ccc5[nH]c(-c6ccc(C(F)(F)F)cc6)nc5c4)nc3c2)CC1	SRB		10 µM, 48 h		growth percent	-80.9%
Cc1cc(=O)[nH]n1-c1nc(-c2ccc(Cl)cc2)c2c(NC(=O)c3ccccc3)nnc-2[nH]1	SRB		10 µM, NCI60 single-dose screen	reference: untreated	cell growth	91.6%
CCCCN1CCN(c2ccc3nc(-c4ccc5nc(-c6cc(OC)ccc6OC)[nH]c5c4)[nH]c3c2)CC1	SRB		10 µM, 48 h		growth percent	99.1%
NNc1nc(-c2ccc(Cl)cc2)c2c(NC(=O)c3ccccc3)nnc-2[nH]1	SRB		10 µM, NCI60 single-dose screen	reference: untreated	cell growth	92.6%

Repeated from above:
SMILES	test	test system	setting	scale	endpoint	value
CCN(CC)c1ccc(C=NNC(=O)CSc2nc3ccccc3c(=O)n2Cc2ccc(S(N)(=O)=O)cc2)c(O)c1	NCI five-dose screen				TGI	> 100 µM
C#C[C@@]1(O)[C@@H](CO)O[C@@H](n2cc(Br)c3c(N)ncnc32)[C@@H]1O	SRB		NCI-60 screen		TGI	> 100 µM
